# Measured values pooled from the literature.
# Every numbered part comes from another study and shows a few of its results, in no order.

# Block 1 — method: RNA Bind-n-Seq; molecule type: RNA; matrix: in vitro; concentration: 365 nM; relative to: no-protein control; direction: higher = stronger binding
# Target: RNA binding protein fox-1 homolog 2, RRM domain, GST-SBP tag (RBFOX2, Homo sapiens, UniProt O43251-10, residues 100-194)
# Notes: natural RNA segment, single round, ends assumed
# Residues (chain): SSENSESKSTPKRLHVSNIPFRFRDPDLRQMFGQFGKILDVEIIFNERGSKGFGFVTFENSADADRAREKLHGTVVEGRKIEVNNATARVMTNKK
Strand,RBNS enrichment (R)
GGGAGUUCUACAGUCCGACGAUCCCCCACCCCAGCUGUAGUUAAUUUCAGUGCCUUACAAAUCCUAAGCUCAGAGAAAGUUCCAUUUCCGUUCCAGAGGGAAGGGAACCUCCCUAGGUCCUUCCCUGGCUUGUUGGAAUUCUCGGGUGCCAA,1.04
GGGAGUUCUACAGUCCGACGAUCUUCACCCAGUAUCACAAAGAUGACUUUGUGGGAGGUACUUAGAAUGGGCUAAGGUGGACAGGCUGUGUAAGUUUUAUCAGCUAGCAGACUGAGUGUGGGCUGGAAUUGUUUGGAAUUCUCGGGUGCCAA,0.523
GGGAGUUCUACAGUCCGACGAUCCACAGUGCCUGGGGCGGAAGGAGGAGAGGUGUUGCGGUUUGCCCUGCUGCCUCCCCAGCAGGAACAAUAGUCAUAAAUGCACUUUUCACACUAAAGGUUUCUUUAUUAGUUGGAAUUCUCGGGUGCCAA,0.785
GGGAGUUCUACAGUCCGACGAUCAAAUAUUCUCUUCAAAUGCCACCUUCUCAAUUUAUAACUAAAAUAGUGUUAUCUGACUAAUUCCUCUGAAUUUUGAUGUAAGAUCUAUAUAGGCCCCCAAAAUGAUCGUAUGGAAUUCUCGGGUGCCAA,0.863
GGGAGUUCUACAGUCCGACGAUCCUUGUCAUCUUUUAGAGUAAACUAUUCUAUAAACAUAUGCAAACAGCCCUAAAUAAAUCUAAAGUCUAAAGUUUUAUUGAUGUGAAAUUAAAUUCUUAUUGGCCAAAUGCUGGAAUUCUCGGGUGCCAA,0.585
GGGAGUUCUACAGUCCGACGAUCCUGUCCGCAGAUCCUGACUUUUCCAAAGUGCCUUAAAAGAAAUCAGACAAAUGCCCUGAGUGGUAACUUCUGUGUUAUUUUACUCUUAAAACCAAACUCUACCUUUUCUUUGGAAUUCUCGGGUGCCAA,0.403
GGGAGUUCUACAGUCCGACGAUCUGUGUAAAUUGCUAUUCAACACUUGGAUAUUACCAGUCUGUGGUUUAAUUAUUCCUCCUAGUGAGCUUGCAAAGCAUAGACUAAAUUAAACCCUAAUGUUAGAUGUCAGUUGGAAUUCUCGGGUGCCAA,0.315
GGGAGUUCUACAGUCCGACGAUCGUGACUUUAUAAAUACAGUUUUAAAACAUUUCACAUGCAUGGUAGCACGCAGAGGGUUUUGUUGUGGAUGUGUUUGUUUGUUUGUUUGUUUGUUUUAACAUGUUCUUUUAUGGAAUUCUCGGGUGCCAA,6.7
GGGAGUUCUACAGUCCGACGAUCCCUGUGGCCAGGCGCUCCUGCACGUGCCCACUUCCUGCUCGGUACUGGUACUGGGUACAUGGGUAAGGGUGGUACAGUGAAACCCACUCUCUCCCCUUUUUAUAAUGUAGUGGAAUUCUCGGGUGCCAA,0.383
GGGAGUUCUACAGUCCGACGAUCUUGGGUCUCCUGGGAUUCUAGGAGUGACAGACCAGGCUGUGGCCUCUGCACCCCACCCCUCACCCUUGUGCAGGGACAACUCCUUGCCCUGUGUUUCUUGGCCUCUAGACUGGAAUUCUCGGGUGCCAA,0.371
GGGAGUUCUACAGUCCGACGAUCACAAUACUUCUCUCUUCUGGUUUUUCCUGAAUGAGCCUGAUUUUGUUGCUGGUUUUCAUCAUCUAUGAGGGUAAAACGAGUACCCUUAAAAUCCCUGUGGCCAGUUUGAAUGGAAUUCUCGGGUGCCAA,0.2
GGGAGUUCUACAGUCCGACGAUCUUGUUUUUACAACUGUUCCUUUCACAAGCAAGCCUUAAAAAAAAAAAAGACAACUUCCUUUUUCUUCAGCUCCCACACCCCAUUUUUCUUAGCAGACUGCAGUCAAUCCAUGGAAUUCUCGGGUGCCAA,0.601

# Block 2 — method: protein-binding microarray; molecule type: double-stranded DNA, one strand shown; matrix: in vitro; concentration: 2200 nM top; notes: 60-bp whole probe; together with: salmon DNA 0.4 mg/ml; relative to: random background probes; direction: higher = stronger binding; shared flanks, not repeated: GCCTAGCAC … GTCTTGATTCGCTTGACGCTGCTG
# Target: Interferon regulatory factor 7, full length, phosphomimetic (IRF7, Homo sapiens, UniProt Q92985, residues 1-503, S471D/S472D/S475D/S476D/S477D/S483D/S484D/S487D)
# Residues (chain): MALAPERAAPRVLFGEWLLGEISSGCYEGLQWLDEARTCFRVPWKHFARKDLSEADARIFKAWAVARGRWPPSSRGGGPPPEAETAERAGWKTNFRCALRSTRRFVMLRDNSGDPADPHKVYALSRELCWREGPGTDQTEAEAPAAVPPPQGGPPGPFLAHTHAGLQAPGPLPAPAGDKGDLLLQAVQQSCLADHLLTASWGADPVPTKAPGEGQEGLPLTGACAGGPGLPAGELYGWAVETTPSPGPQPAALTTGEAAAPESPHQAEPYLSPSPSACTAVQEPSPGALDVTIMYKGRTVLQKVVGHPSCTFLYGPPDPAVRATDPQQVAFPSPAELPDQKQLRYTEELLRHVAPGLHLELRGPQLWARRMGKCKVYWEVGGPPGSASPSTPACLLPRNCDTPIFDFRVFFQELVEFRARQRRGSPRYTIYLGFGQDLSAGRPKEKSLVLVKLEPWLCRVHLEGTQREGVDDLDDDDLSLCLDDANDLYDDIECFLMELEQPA
Strand,fitted relative affinity [z-score]
TAAGGTTTCGGGACTGGGTTAGTGCTA,2.78
CAGGGAATTCACCTGCTGACGTGCTAG,-0.348
TTAGGTTTGGACTATCGGTTAGTGCTA,0.39
TTAGGTATCGGTCTCGCTTAGTGCTAG,0.776
TTAGATATCAGACGGGATTAGTGCTAG,-0.312
TTAGGTTCCCTTTTCCTTTGGTGCTAG,3.47
TTAGATCTCAGTCTTGATTAGTGCTAG,0.0193
GAGGGTTTCGGTCTCGGGACGTGCTAG,3.81
TCAAACTTGTGTTTGTCACTGTGCTAG,0.481
CTTTTTTTCAAGAAACAGTTCGTGCTA,0.467
GGGTCTGTGCCTTTTTTTTTGTGCTAG,0.0915
TTAGATGTCAGACTGGATTAGTGCTAG,-0.179
TTAGGTTTCCTTTCTCTTTAGTGCTAG,5.06
TTAGGTTTTGGGTTTCGGTTAGTGCTA,4.95
TGCATTTTTTTTTTCTACTTGTGCTAG,2.73
TTAGGTTTCGACTATCGATTAGTGCTA,3.04
GACGGTTTCCTTGTCCTGACGTGCTAG,2.21
TTAGGTATTCTTTTCCTTTAGTGCTAG,1.27
GACGGATTCCTTCTCCTGACGTGCTAG,1.39

# Block 3 — method: RNA Bind-n-Seq; molecule type: RNA; matrix: in vitro; concentration: 1 µM; notes: whole 134-nt RNA, ends assumed; together with: 150 mM KCl; relative to: input library; direction: higher = stronger binding
# Target: Ras GTPase-activating protein-binding protein 1, RRM domain (G3BP1, Homo sapiens, UniProt Q13283)
# Sequence of UniProt Q13283 (whole entry, looked up): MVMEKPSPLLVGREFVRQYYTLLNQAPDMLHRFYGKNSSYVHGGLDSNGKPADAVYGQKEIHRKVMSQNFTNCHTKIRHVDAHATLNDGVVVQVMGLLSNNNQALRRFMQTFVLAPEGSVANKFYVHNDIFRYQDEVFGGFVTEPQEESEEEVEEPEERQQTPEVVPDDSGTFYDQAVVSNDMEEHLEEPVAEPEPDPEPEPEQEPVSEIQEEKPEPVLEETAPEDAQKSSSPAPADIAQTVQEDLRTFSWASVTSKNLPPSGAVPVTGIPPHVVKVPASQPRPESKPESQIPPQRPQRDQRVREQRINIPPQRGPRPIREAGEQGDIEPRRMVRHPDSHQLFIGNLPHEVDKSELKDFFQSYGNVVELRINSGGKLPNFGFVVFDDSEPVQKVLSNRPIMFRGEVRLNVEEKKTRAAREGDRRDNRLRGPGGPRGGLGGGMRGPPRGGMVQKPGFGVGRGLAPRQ
Strand,log2 enrichment
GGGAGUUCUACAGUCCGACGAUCUGGCCCUGGUGGCAUGCGGGGAGGAAGAGGUGGCCUCAUGGAUCGUGGUGGUCCCGGUGGAAUGUUCAGAGGUGGCUGUGGUGGAGACAGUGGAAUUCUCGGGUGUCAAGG,1.42
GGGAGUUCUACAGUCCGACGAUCUGGGAGGUGGAUUUUGUUUAUUUUUUUAGCUCAUUUCCAGGGGGGGGAAUUUUUUUUUAAUAUGUGUCAUGAAUAAAGUUGUUUUUGAAAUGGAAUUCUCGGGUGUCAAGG,1.57
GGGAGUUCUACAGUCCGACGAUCCUCAAGUCCUGUGCUACACAUCGUAUGUACCGAAUCGGAGGGGAGGGGAGGGGAAAGUAUUAUGUUACGCCGUUCGGAUCUGCACUUCCAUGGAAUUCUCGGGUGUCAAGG,0.428
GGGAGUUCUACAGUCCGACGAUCUCCUGUGCUACACAUCGUAUGUACCGAAUCGGGAAAAAGGGGAAAAAGGGGAAAAAGGGGAAAGUAUUAUGUUACGCCGUUCGGAUCUGCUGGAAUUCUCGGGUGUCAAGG,0.171
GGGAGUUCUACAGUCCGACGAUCCUCAAGUCCUGUGCUACACAUCGUAUGUACCGAAUCGGUGGUUUUUGGUUUGGAAAGUAUUAUGUUACGCCGUUCGGAUCUGCACUUCCAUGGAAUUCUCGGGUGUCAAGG,-0.283
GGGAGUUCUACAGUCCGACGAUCCUCAAGUCCUGUGCUACACAUCGUAUGUACCGAAUCGGAGGAAAAAGGAAAGGAAAGUAUUAUGUUACGCCGUUCGGAUCUGCACUUCCAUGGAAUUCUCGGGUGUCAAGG,-0.108
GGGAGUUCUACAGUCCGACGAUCACCAUGCAGGUGGGAAUCUUUGGGAAGUGGGGCAAGGGGGGGAUAGGGAGGGGGGUAACACUUUGGGAACAGGUGGUCCCAGGUCGUUUCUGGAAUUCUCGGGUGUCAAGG,-0.457
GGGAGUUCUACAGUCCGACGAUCCAAGUCCUGUGCUACACAUCGUAUGUACCGAAUCGGGUUUUUGGGAGGGUUUGGGAAAGUAUUAUGUUACGCCGUUCGGAUCUGCACUUCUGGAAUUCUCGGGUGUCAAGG,0.567
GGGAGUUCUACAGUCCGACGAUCUAACUUUAGAGGAGGAUCUGAUGGAUAUGGCAGUGGAGGUGGAUUUGGGGAUGGCUAUAAUGGGUAUGGAGGAGGACCUGGAGGUGGCAAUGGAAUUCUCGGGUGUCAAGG,-0.703
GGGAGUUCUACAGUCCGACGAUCUAACUUUAGAGGAGGAUCUGAUGGAUAUGGCAGUGGACGUGCAUUUGGGGAUGGCUAUAAUGGGUAUGGAGGAGGACCUGGAGGUGGCAAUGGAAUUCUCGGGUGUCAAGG,-0.584

# Block 4 — method: protein binding microarray; molecule type: double-stranded DNA, one strand shown; matrix: in vitro; concentration: not given; relative to: not given; direction: higher = stronger binding
# Target: Histone acetyltransferase KAT6A, winged helix 1, GST fusion (KAT6A, Homo sapiens, UniProt Q92794, residues 1-85)
# Notes: 8-mer, flanks averaged, mean of 2 arrays, mostly near background
# Target sequence (chain): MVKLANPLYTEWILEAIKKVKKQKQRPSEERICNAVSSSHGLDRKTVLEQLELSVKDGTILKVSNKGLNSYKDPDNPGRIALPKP
Strand,E-score
AACCGCTC,0.155
GGCCTCCA,-0.0299
AGAGATAG,-0.0484
ATACGAAT,-0.221
AACTTGCG,0.103
ACACTGGT,-0.155
ACAAATCC,-0.131
CCCAATGA,-0.212
AACCCGCT,0.333
CGAGCACA,-0.142
AAGGGGGG,-0.18
GACAGAAC,-0.0263
ACCAATAC,-0.00698
CGTGAAAG,-0.0438
ACATCTGC,-0.074
CGTCCACA,-0.0563
ATCGCGGG,0.325
CCTTATCA,-0.0636
GAGCTCTA,-0.0446
GTGAGATA,0.0799
CGGGTGTC,0.217
ATCGGACA,0.00181
CTTCGTTC,-0.23
ACTACAAC,-0.0344

# A few entries again (block 3):
Strand,log2 enrichment
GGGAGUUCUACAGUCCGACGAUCUCCUGUGCUACACAUCGUAUGUACCGAAUCGGGAAAAAGGGGAAAAAGGGGAAAAAGGGGAAAGUAUUAUGUUACGCCGUUCGGAUCUGCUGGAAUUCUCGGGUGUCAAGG,0.171
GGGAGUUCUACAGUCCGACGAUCCUCAAGUCCUGUGCUACACAUCGUAUGUACCGAAUCGGUGGUUUUUGGUUUGGAAAGUAUUAUGUUACGCCGUUCGGAUCUGCACUUCCAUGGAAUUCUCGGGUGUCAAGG,-0.283
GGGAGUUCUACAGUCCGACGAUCCUCAAGUCCUGUGCUACACAUCGUAUGUACCGAAUCGGAGGAAAAAGGAAAGGAAAGUAUUAUGUUACGCCGUUCGGAUCUGCACUUCCAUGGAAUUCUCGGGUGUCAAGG,-0.108
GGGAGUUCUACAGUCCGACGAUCACCAUGCAGGUGGGAAUCUUUGGGAAGUGGGGCAAGGGGGGGAUAGGGAGGGGGGUAACACUUUGGGAACAGGUGGUCCCAGGUCGUUUCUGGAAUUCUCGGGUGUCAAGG,-0.457
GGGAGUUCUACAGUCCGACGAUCCAAGUCCUGUGCUACACAUCGUAUGUACCGAAUCGGGUUUUUGGGAGGGUUUGGGAAAGUAUUAUGUUACGCCGUUCGGAUCUGCACUUCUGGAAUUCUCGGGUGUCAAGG,0.567
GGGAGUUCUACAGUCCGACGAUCUAACUUUAGAGGAGGAUCUGAUGGAUAUGGCAGUGGAGGUGGAUUUGGGGAUGGCUAUAAUGGGUAUGGAGGAGGACCUGGAGGUGGCAAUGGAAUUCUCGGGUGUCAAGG,-0.703
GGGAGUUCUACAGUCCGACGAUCUAACUUUAGAGGAGGAUCUGAUGGAUAUGGCAGUGGACGUGCAUUUGGGGAUGGCUAUAAUGGGUAUGGAGGAGGACCUGGAGGUGGCAAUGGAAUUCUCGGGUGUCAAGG,-0.584
